Results of several laboratories.
Protocols differ between the studies behind these lines. Several values in a cell are separate wells, animals, samples, runs or records. ± marks the error that the study gave.
B1: SULT1A3 (Homo sapiens, UniProt P0DMM9); chain MELIQDTSRPPLEYVKGVPLIKYFAEALGPLQSFQARPDDLLINTYPKSGTTWVSQILDMIYQGGDLEKCNRAPIYVRVPFLEVNDPGEPSGLETLKDTPPPRLIKSHLPLALLPQTLLDQKVKVVYVARNPKDVAVSYYHFHRMEKAHPEPGTWDSFLEKFMAGEVSYGSWYQHVQEWWELSRTHPVLYLFYEDMKENPKREIQKILEFVGRSLPEETMDFMVQHTSFKEMKKNPMTNYTTVPQELMDHSISPFMRKGMAGDWKTTFTVAQNERFDADYAEKMAGCSLSFRSEL
B2: Msrb2 (Mus musculus, UniProt Q78J03); chain ADWQKKLTPEQFYVTREKGTEAPFSGMYLNNKETGMYHCVCCDSPLFSSEKKYCSGTGWPSFSEAYGSKGSDESHTGILRRLDTSLGCPRMEVVCKQCEAHLGHVFPDGPKPTGQRFCINSVALKFKPSKP

Molecule | target or system | assay | system | setting | quantity | result
CC(C)C[C@H](NC(=O)C[C@H](O)[C@H](CC(C)C)NC(=O)[C@H](Cc1c[nH]cn1)NC(=O)CNC(=O)[C@@H](NC(=O)[C@H](C)NC(=O)[C@H](Cc1c[nH]c2ccccc12)NC(=O)[C@H](CCC(N)=O)NC(=O)[C@@H](Cc1ccccc1)NC(=O)CCOCCOCCOCCNC(=O)CN1CCN(CC(=O)O)CCN(CC(=O)O)CC1)C(C)C)C(N)=O [gallium-68 labelled] | – | microPET imaging | nude mouse PC-3 xenograft, PC-3 tumour | intravenous, 3.7 MBq, 60 min | mean tumour uptake | 3.01 ± 0.45 %ID/g
CSCC[C@H](NC(=O)[C@H](CC(C)C)NC(=O)[C@H](Cc1c[nH]cn1)NC(=O)CNC(=O)[C@@H](NC(=O)[C@H](C)NC(=O)[C@H](Cc1c[nH]c2ccccc12)NC(=O)[C@H](CCC(N)=O)NC(=O)CCOCCOCCOCCOCCNC(=O)CN1CCN(CC(=O)O)CCN(CC(=O)O)CCN(CC(=O)O)CC1)C(C)C)C(N)=O [indium-111 labelled] | – | radio-HPLC | Swiss nu/nu mice, blood | intravenous, 1 nmol, 5 min | intact peptide | 22.4% and 24.4%
N=C(N)NCCC[C@@H]1NC(=O)[C@H](CCCCNC(=O)CC[C@H](NC(=O)CC[C@H](NC(=O)CN2CCN(CC(=O)O)CCN(CC(=O)O)CCN(CC(=O)O)CC2)C(=O)N[C@@H](CCC(=O)NCCCC[C@@H]2NC(=O)[C@@H](Cc3ccccc3)NC(=O)[C@H](CC(=O)O)NC(=O)CNC(=O)[C@H](CCCNC(=N)N)NC2=O)C(=O)NCCCC[C@@H]2NC(=O)[C@@H](Cc3ccccc3)NC(=O)[C@H](CC(=O)O)NC(=O)CNC(=O)[C@H](CCCNC(=N)N)NC2=O)C(=O)NCCCC[C@@H]2NC(=O)[C@@H](Cc3ccccc3)NC(=O)[C@H](CC(=O)O)NC(=O)CNC(=O)[C@H](CCCNC(=N)N)NC2=O)NC(=O)[C@@H](Cc2ccccc2)NC(=O)[C@H](CC(=O)O)NC(=O)CNC1=O [indium-111 labelled] | – | – | female athymic nu/nu mice, liver | intravenous, 4 h | tissue uptake | 2.75 ± 0.29 %ID/g
enzyme (Streptomyces platensis, UniProt A0A0A0V031) | C[C@@]12CCC[C@@](C)(C(=O)OP(=O)(O)OC[C@H]3O[C@@H](n4cnc5c(N)ncnc54)[C@H](O)[C@@H]3O)[C@H]1C[C@@H](O)[C@]13C[C@H]4C[C@H](O[C@@]4(C)C1)[C@@H]23 | steady-state kinetics | – | pH 7.8, 25 °C | Vmax | 12.9 µmol/min
B1 (SULT1A3) | O=C(O[C@@H]1Cc2c(O)cc(O)cc2O[C@@H]1c1cc(O)c(O)c(O)c1)c1cc(O)c(O)c(O)c1 | steady-state kinetics | – | pH 7.4, not purified | Vmax | 0.039 µmol/min/mg
B2 (Msrb2) | CN(C)c1ccc(/N=N/c2ccc(S(=O)(=O)N[C@@H](CC[S@@+](C)[O-])C(=O)O)cc2)cc1 | steady-state kinetics | – | pH 7.5, NaCl 50 mM, with: DTT 20 mM | Vmax | 0.279 µmol/min/mg
CCCC[C@H](NC(=O)CCCCCCCNC(=O)CN1CCN(CC(=O)O)CCN(CC(=O)O)CC1)C(=O)N[C@H]1CC(=O)NCCCC[C@@H](C(N)=O)NC(=O)[C@H](Cc2c[nH]c3ccccc23)NC(=O)[C@H](CCCNC(=N)N)NC(=O)[C@@H](Cc2ccccc2)NC(=O)[C@H](Cc2c[nH]cn2)NC1=O [copper-64 labelled] | – | – | C57 mice, pancreas | intravenous, 0.37 MBq, 0.5 h | tissue uptake | 0.75 ± 0.19 %ID/g
N=C(N)NCCC[C@@H]1NC(=O)[C@H](CCCCNC(=S)Nc2ccc(CC3CN(CC(=O)O)CCN(CC(=O)O)CCN(CC(=O)O)CCN3CC(=O)O)cc2)NC(=O)[C@@H](Cc2ccc(O)cc2)NC(=O)[C@H](CC(=O)O)NC(=O)CNC1=O (some centres unmarked) [actinium-225 labelled] | – | – | U-87 MG tumour-bearing mice | 1 h | tumour to muscle ratio | 2.4
